Measurements of several laboratories.
Each line is one published result; not all experiments were run side by side. “And” joins repeats or separate records; there may be more than shown. Numbers after ± are the reported error.

`CC[C@H](C)[C@@H](C(=O)N[C@@H](CC(C)C)C(=O)N[C@@H](CO)C(=O)N[C@@H](CO)C(=O)N[C@H](C(=O)N[C@@H](CCC(=O)O)C(=O)N[C@H](C(=O)NCC(=O)N[C@@H](CO)C(=O)N[C@@H](CCCN)C(=O)N[C@H](C(=O)N1C[C@H](O)C[C@H]1C(N)=O)[C@@H](C)O)C(C)C)[C@@H](C)O)N(C)C(=O)[C@H](C)NC(=O)CN(C)C(=O)[C@H](Cc1ccccc1)NC(=O)[C@H](CO)NC(=O)[C@H](CO)NC(=O)[C@H](CCCNC(=N)N)NC(=O)[C@@H](NC(=O)[C@H](CC(C)C)NC(=O)[C@H](Cc1ccccc1)NC(=O)[C@H](Cc1c[nH]cn1)NC(=O)[C@H](C)NC(=O)[C@H](CC(C)C)NC(=O)[C@H](CCCNC(=N)N)NC(=O)[C@H](CCC(=O)O)NC(=O)[C@@H](NC(=O)[C@H](C)NC(=O)[C@@H]1CSSC[C@H](NC(=O)[C@H](CCCNC(=N)N)NC(=O)CC[C@H](NC(=O)CCCCCCCCCCCCCCCCCCC(=O)O)C(=O)O)C(=O)NCC(=O)N[C@@H]([C@@H](C)O)C(=O)N[C@@H](C)C(=O)N[C@@H]([C@@H](C)O)C(=O)N1)[C@@H](C)O)[C@@H](C)O`: “remaining main peak” 90 area % (RP-HPLC; water; 7 days, pH 7.5, 40 °C).
The remaining compound of `C[C@](C(=O)NC1CCC(F)(F)CC1)(c1cncnc1)N(C(=O)[C@H](F)Cl)c1ccc(OC(F)(F)F)cc1` is reported as 16.5% (mouse liver microsomes; concentration not given, 0.75 h, pH 7.4).
For `Cc1ccc(C(C)C)cc1.O=C(N=P12CN3CN(CN(C3)C1)C2)c1[c-]cccc1.[Cl-].[Ru+2]`, “remaining intact compound” read 6% (DMSO-d6; 1 month).
`CC[C@H](C)[C@@H](C(=O)N[C@@H](CC(C)C)C(=O)N[C@@H](CO)C(=O)N[C@@H](CO)C(=O)N[C@H](C(=O)N[C@@H](CCC(=O)O)C(=O)N[C@H](C(=O)NCC(=O)N[C@@H](CO)C(=O)N[C@@H](CC(N)=O)C(=O)N[C@H](C(=O)N1C[C@H](O)C[C@H]1C(N)=O)[C@@H](C)O)C(C)C)[C@@H](C)O)N(C)C(=O)[C@H](C)NC(=O)CN(C)C(=O)[C@H](Cc1ccccc1)NC(=O)[C@H](CO)NC(=O)[C@H](CO)NC(=O)[C@H](CCCNC(=N)N)NC(=O)[C@H](CCC(N)=O)NC(=O)[C@H](CC(C)C)NC(=O)[C@H](Cc1ccccc1)NC(=O)[C@H](CC(=O)O)NC(=O)[C@H](C)NC(=O)[C@H](CC(C)C)NC(=O)[C@H](CCCNC(=N)N)NC(=O)[C@H](CCC(N)=O)NC(=O)[C@@H](NC(=O)[C@H](C)NC(=O)[C@@H]1CSSC[C@H](NC(=O)[C@H](CCCNC(=N)N)NC(=O)CC[C@H](NC(=O)CCCCCCCCCCCCCCCCCCC(=O)O)C(=O)O)C(=O)N[C@@H](CC(N)=O)C(=O)N[C@@H]([C@@H](C)O)C(=O)N[C@@H](C)C(=O)N[C@@H]([C@@H](C)O)C(=O)N1)[C@@H](C)O` — result for “remaining main peak”: 97 area % (RP-HPLC; water; 7 days, pH 6.0, 40 °C).
`CC(C)(C)[C@H](NC(=O)c1ccc(Oc2ccc(C(=O)N[C@H]3CCCC[C@@H]3O)cc2)cc1)C(=O)NCCN1CCCC1` gave a remaining compound of 84.3% (mouse liver microsomes; 1 µM, 30 min, pH 7.4).
For `CC[C@H](C)[C@@H](C(=O)N[C@@H](CC(C)C)C(=O)N[C@@H](CO)C(=O)N[C@@H](CO)C(=O)N[C@H](C(=O)N[C@@H](CCC(=O)O)C(=O)N[C@H](C(=O)NCC(=O)N[C@@H](CO)C(=O)N[C@@H](CO)C(=O)N[C@H](C(=O)N1CCC[C@H]1C(N)=O)[C@@H](C)O)C(C)C)[C@@H](C)O)N(C)C(=O)[C@H](C)NC(=O)CN(C)C(=O)[C@H](Cc1ccccc1)NC(=O)[C@H](CO)NC(=O)[C@H](CO)NC(=O)[C@H](CCCNC(=N)N)NC(=O)[C@H](CCC(N)=O)NC(=O)[C@H](CC(C)C)NC(=O)[C@H](Cc1ccccc1)NC(=O)[C@H](Cc1c[nH]cn1)NC(=O)[C@H](C)NC(=O)[C@H](CC(C)C)NC(=O)[C@H](CCCNC(=N)N)NC(=O)[C@H](CCC(=O)O)NC(=O)[C@@H](NC(=O)[C@H](C)NC(=O)[C@@H]1CSSC[C@H](NC(=O)[C@H](CCCNC(=N)N)NC(=O)CC[C@H](NC(=O)CCCCCCCCCCCCCCCCCCC(=O)O)C(=O)O)C(=O)NCC(=O)N[C@@H]([C@@H](C)O)C(=O)N[C@@H](C)C(=O)N[C@@H]([C@@H](C)O)C(=O)N1)[C@@H](C)O`, “remaining main peak” read 71 area % (RP-HPLC; water; 7 days, pH 7.5, 40 °C).
For `Cc1nc(N)nc2c1C(=O)N[C@@H](c1ccc(F)cc1-c1cccc(OCC[18F])n1)C2`, “remaining intact compound” read 98% (HPLC; mouse serum; 100 µM, up to 4 h, 37 °C).
With `CN(Cc1cc(C2CC2)on1)C(=O)c1cccc(-c2ccc(F)cc2)c1` the remaining compound was 79.4% (human liver microsomes; 2 µM, 15 min, pH 7.5, without ABT).
The remaining compound of `O=C(NC1CCC(F)(F)CC1)C(c1cncnc1)N(C(=O)C(F)Cl)c1ccc(-c2cncs2)cc1` (centres unmarked) is reported as 48.3% (mouse liver microsomes; concentration not given, 0.5 h, pH 7.4).
The remaining activity of `CSCC[C@@H](N)C(=O)N[C@@H](CC(C)C)C(=O)N[C@@H](CCCNC(=N)N)C(=O)N[C@@H](Cc1c[nH]c2ccccc12)C(=O)N[C@@H](CO)C(=O)N[C@@H](CCCNC(=N)N)C(=O)N[C@@H](CCCCN)C(=O)N[C@@H](CCSC)C(=O)N1CCC[C@H]1C(=O)N[C@@H](CS)C(=O)N[C@H](C(=O)N[C@@H](CO)C(=O)O)C(C)C` is reported as 68 ± 8% (12G5 competition, SUP-T1 cells; human plasma; 20 µM, 2 h, 37 °C).
Under “remaining main peak”, `CC[C@H](C)[C@@H](C(=O)N[C@@H](CC(C)C)C(=O)N[C@@H](CO)C(=O)N[C@@H](CO)C(=O)N[C@H](C(=O)N[C@@H](CCC(=O)O)C(=O)N[C@H](C(=O)NCC(=O)N[C@@H](CO)C(=O)N[C@@H](CC(N)=O)C(=O)N[C@H](C(=O)N1C[C@H](O)C[C@H]1C(N)=O)[C@@H](C)O)C(C)C)[C@@H](C)O)N(C)C(=O)[C@H](C)NC(=O)CN(C)C(=O)[C@H](Cc1ccccc1)NC(=O)[C@H](CO)NC(=O)[C@H](CO)NC(=O)[C@H](CCCNC(=N)N)NC(=O)[C@H](CCC(N)=O)NC(=O)[C@H](CC(C)C)NC(=O)[C@H](Cc1ccccc1)NC(=O)[C@H](CCCC(=O)O)NC(=O)[C@H](C)NC(=O)[C@H](CC(C)C)NC(=O)[C@H](CCCNC(=N)N)NC(=O)[C@H](CCC(=O)O)NC(=O)[C@@H](NC(=O)[C@H](C)NC(=O)[C@@H]1CSSC[C@H](NC(=O)[C@H](CCCNC(=N)N)NC(=O)CC[C@H](NC(=O)CCCCCCCCCCCCCCCCCCC(=O)O)C(=O)O)C(=O)NCC(=O)N[C@@H]([C@@H](C)O)C(=O)N[C@@H](C)C(=O)N[C@@H]([C@@H](C)O)C(=O)N1)[C@@H](C)O` is recorded as 93 area % (RP-HPLC; water; 7 days, pH 7.5, 40 °C).
`N=C(N)NCCC[C@@H]1NC(=O)[C@H](CCCNC(=N)N)NC(=O)[C@@H](C(c2ccccc2)c2ccccc2)NC(=O)[C@H](Cc2c[nH]c3ccccc23)NC(=O)[C@@H](C(c2ccccc2)c2ccccc2)NC(=O)[C@@H](CCCNC(=N)N)NC(=O)[C@@H](CCCNC(=N)N)NC1=O` gave a remaining peptide of roughly 83.1% (LC-MS; human plasma; 30 min).
The remaining fraction of `CC(C)(C)[Si](C)(C)Oc1ccc(COC(=O)NNc2ccccc2)cc1` is reported as 0.93 and 0.96 and 0.87 (PBS; 18 h, 37 °C; relative to: initial amount).
With `C=CC(=O)Nc1cc(Nc2nccc(-c3cn(C)c4ccccc34)n2)c(OC)cc1N(C)CCNC` the remaining amount was 94.3% (storage stability; human dried blood spot; 270 ng/mL, 5 h, on ice, HQC level).

For quick reference, copied from above:
Under “remaining main peak”, `CC[C@H](C)[C@@H](C(=O)N[C@@H](CC(C)C)C(=O)N[C@@H](CO)C(=O)N[C@@H](CO)C(=O)N[C@H](C(=O)N[C@@H](CCC(=O)O)C(=O)N[C@H](C(=O)NCC(=O)N[C@@H](CO)C(=O)N[C@@H](CC(N)=O)C(=O)N[C@H](C(=O)N1C[C@H](O)C[C@H]1C(N)=O)[C@@H](C)O)C(C)C)[C@@H](C)O)N(C)C(=O)[C@H](C)NC(=O)CN(C)C(=O)[C@H](Cc1ccccc1)NC(=O)[C@H](CO)NC(=O)[C@H](CO)NC(=O)[C@H](CCCNC(=N)N)NC(=O)[C@H](CCC(N)=O)NC(=O)[C@H](CC(C)C)NC(=O)[C@H](Cc1ccccc1)NC(=O)[C@H](CCCC(=O)O)NC(=O)[C@H](C)NC(=O)[C@H](CC(C)C)NC(=O)[C@H](CCCNC(=N)N)NC(=O)[C@H](CCC(=O)O)NC(=O)[C@@H](NC(=O)[C@H](C)NC(=O)[C@@H]1CSSC[C@H](NC(=O)[C@H](CCCNC(=N)N)NC(=O)CC[C@H](NC(=O)CCCCCCCCCCCCCCCCCCC(=O)O)C(=O)O)C(=O)NCC(=O)N[C@@H]([C@@H](C)O)C(=O)N[C@@H](C)C(=O)N[C@@H]([C@@H](C)O)C(=O)N1)[C@@H](C)O` is recorded as 93 area % (RP-HPLC; water; 7 days, pH 7.5, 40 °C).
`CC[C@H](C)[C@@H](C(=O)N[C@@H](CC(C)C)C(=O)N[C@@H](CO)C(=O)N[C@@H](CO)C(=O)N[C@H](C(=O)N[C@@H](CCC(=O)O)C(=O)N[C@H](C(=O)NCC(=O)N[C@@H](CO)C(=O)N[C@@H](CC(N)=O)C(=O)N[C@H](C(=O)N1C[C@H](O)C[C@H]1C(N)=O)[C@@H](C)O)C(C)C)[C@@H](C)O)N(C)C(=O)[C@H](C)NC(=O)CN(C)C(=O)[C@H](Cc1ccccc1)NC(=O)[C@H](CO)NC(=O)[C@H](CO)NC(=O)[C@H](CCCNC(=N)N)NC(=O)[C@H](CCC(N)=O)NC(=O)[C@H](CC(C)C)NC(=O)[C@H](Cc1ccccc1)NC(=O)[C@H](CC(=O)O)NC(=O)[C@H](C)NC(=O)[C@H](CC(C)C)NC(=O)[C@H](CCCNC(=N)N)NC(=O)[C@H](CCC(N)=O)NC(=O)[C@@H](NC(=O)[C@H](C)NC(=O)[C@@H]1CSSC[C@H](NC(=O)[C@H](CCCNC(=N)N)NC(=O)CC[C@H](NC(=O)CCCCCCCCCCCCCCCCCCC(=O)O)C(=O)O)C(=O)N[C@@H](CC(N)=O)C(=O)N[C@@H]([C@@H](C)O)C(=O)N[C@@H](C)C(=O)N[C@@H]([C@@H](C)O)C(=O)N1)[C@@H](C)O` — result for “remaining main peak”: 97 area % (RP-HPLC; water; 7 days, pH 6.0, 40 °C).
